Measured values gathered from unrelated publications.
A part holds a random share of what one study measured. Positions count from the first letter of the parent shown.

Sample 1
Target: Fragile X messenger ribonucleoprotein 1, C-terminal low-complexity region (Fmr1, Mus musculus, UniProt P35922)
Method: RNA Bind-n-Seq
Form: RNA
Medium: in vitro
Concentration: 200 nM
Setting: whole 134-nt RNA, ends assumed
Together with: 150 mM KCl
Baseline: input library
Direction: higher = stronger binding
`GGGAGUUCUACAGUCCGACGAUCCCUCAAGUCCUGUGCUACACAUCGUAUGUACCGAAUCGGGGAGGGAGGGGAGGAAAGUAUUAUGUUACGCCGUUCGGAUCUGCACUUCCAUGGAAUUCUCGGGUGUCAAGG` has a log2 enrichment of 0.873.
With `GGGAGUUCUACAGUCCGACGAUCUGGGAGGUGGAUUUUGUUUAUUUUUUUAGCUAAUUUCCAGGGGUGGGAAUUUUUUUUUAAUAUGUGUCAUGAAUAAAGUUGUUUUUGAAAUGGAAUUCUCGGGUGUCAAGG` the log2 enrichment was 0.086.
With `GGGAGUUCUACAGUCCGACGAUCUCAAGUCCUGUGCUACACAUCGUAUGUACCGAAUCGGGAAAGGAAAGGGGAAAGGAAAGUAUUAUGUUACGCCGUUCGGAUCUGCACUUCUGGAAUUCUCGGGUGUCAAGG` the log2 enrichment was -0.445.
`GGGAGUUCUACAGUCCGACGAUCUUCCUCAAGUCCUGUGCUACACAUCGUAUGUACCGAAUCGGAGGGAGGAGGAAAGUAUUAUGUUACGCCGUUCGGAUCUGCACUUCCAGCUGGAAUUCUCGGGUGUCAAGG` gave a log2 enrichment of -0.596.
`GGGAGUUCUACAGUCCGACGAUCCAAGUCCUGUGCUACACAUCGUAUGUACCGAAUCGGGAAAGGGGAAAGGGAAAGGGAAAGUAUUAUGUUACGCCGUUCGGAUCUGCACUUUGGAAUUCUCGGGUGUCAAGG` gave a log2 enrichment of 0.391.
`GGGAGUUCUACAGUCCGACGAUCCUCAAGUCCUGUGCUACACAUCGUAUGUACCGAAUCGGAAAAAGGUGGUUUGGAAAGUAUUAUGUUACGCCGUUCGGAUCUGCACUUCCAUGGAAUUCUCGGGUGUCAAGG` has a log2 enrichment of -0.454.
With `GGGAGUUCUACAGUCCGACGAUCUGUCCUGCAGGGUCGGACCGAUACCUGGAGAGCCGCGAUGCCUCUCGACUGAGUGGCCGGGACCCCUCCUCAUGGACAGUCGAGGAUGUGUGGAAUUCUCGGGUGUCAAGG` the log2 enrichment was -2.32.
`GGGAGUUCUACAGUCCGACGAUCCACAGACAAUACGCACCCACACAGACACAGAGGGAAGGGGUUGGGAUGGGGACAGGGUGCACAGCAGGGCGGGGUAGGACCCCAGCCCCUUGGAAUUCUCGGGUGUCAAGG` gave a log2 enrichment of 1.29.
For `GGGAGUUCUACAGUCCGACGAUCGGAGUGCCGUGAGCAGGCCGCGGGAACGUCGCCGUCACCUUGUCUCGGGGCCUCGGCGCUGCUUCCCGCCAAAACACGUUUACCGCGCGCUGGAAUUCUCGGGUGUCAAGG`, the log2 enrichment was -1.65.
`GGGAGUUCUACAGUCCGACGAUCUGGGAGGUGGAUUUUGUUUAUUUUUUUAGCUCAUUUCCAGGGGUAGGAAUUUUUUUUUAAUAUGUGUCAUGAAUAAAGUUGUUUUUGAAAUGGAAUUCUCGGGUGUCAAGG` gave a log2 enrichment of 0.00134.

Sample 2
Target: CCNA2, cyclin fold, Cln2 fusion (human)
Method: yeast growth competition, sequencing
Medium: yeast
Setting: weak parent motif
Baseline: not given
Direction: higher = stronger binding
Parent: MASTL docking peptide (human); PMIAKNLMCELDE
`D12P` — result for “normalised enrichment score”: -0.0952.
`A4Y`: “normalised enrichment score” 0.0543.
`M8Q` — result for “normalised enrichment score”: -0.348.
`E10G` — result for “normalised enrichment score”: 0.0024.
Under “normalised enrichment score”, `M2R` is recorded as 0.259.
Under “normalised enrichment score”, `C9R` is recorded as 0.209.
`M2D`: “normalised enrichment score” -0.229.
`C9W`: “normalised enrichment score” -0.341.
`M8F` — result for “normalised enrichment score”: 0.21.
For `C9F`, “normalised enrichment score” read 0.382.
Under “normalised enrichment score”, `L11K` is recorded as -0.155.
Under “normalised enrichment score”, `L7S` is recorded as -0.253.
`L11V` — result for “normalised enrichment score”: -0.327.
`I3K` — result for “normalised enrichment score”: 0.0286.
Under “normalised enrichment score”, `E10K` is recorded as 0.422.
`K5V`: “normalised enrichment score” -0.239.
`E10H`: “normalised enrichment score” -0.187.
`D12T` — result for “normalised enrichment score”: 0.055.
Under “normalised enrichment score”, `E10L` is recorded as 0.754.
For `L11S`, “normalised enrichment score” read -0.13.
`M2E` — result for “normalised enrichment score”: -0.221.
Under “normalised enrichment score”, `C9E` is recorded as -0.601.
For `D12E`, “normalised enrichment score” read -0.172.
For `L7C`, “normalised enrichment score” read -0.149.

Sample 3
Target: Sal-like protein 4, full length isoform B (SALL4, Homo sapiens, UniProt Q9UJQ4-2, residues 1-616)
Method: universal PBM
Form: double-stranded DNA, one strand shown
Medium: in vitro
Concentration: not given
Setting: 8-mer, flanks averaged, mean of replicates
Direction: higher = stronger binding
The E-score of `GCGTTTTA` is reported as 0.0308.
The E-score of `CCATGTAG` is reported as -0.00761.
`AATGAACG` has an E-score of 0.178.
The E-score of `ACAAGCGA` is reported as -0.0406.
With `ACGAAAAA` the E-score was 0.272.
With `ACCTCCGC` the E-score was -0.247.
The E-score of `ACGGCGAT` is reported as -0.102.
With `AATTTGTA` the E-score was 0.292.
`ATCCTCAC` gave an E-score of -0.0301.
`AGGTGGAG` gave an E-score of -0.154.
`AGAGCTTC` has an E-score of -0.162.
For `CCGCCCAA`, the E-score was -0.202.
`AGACGTTC` gave an E-score of -0.0673.
The E-score of `CTTTCCCA` is reported as -0.0859.
`ATCAATGA` gave an E-score of 0.236.
With `ACACTGCA` the E-score was -0.186.
For `CACGCCTG`, the E-score was -0.197.
`CTTTCGTC` gave an E-score of -0.0203.
The E-score of `ATTGACAC` is reported as 0.0741.
For `CAAAGGAC`, the E-score was -0.141.
With `ATTGTGAA` the E-score was 0.209.
For `ACAGATAC`, the E-score was 0.155.
With `GATACCCC` the E-score was -0.0883.

Sample 4
Target: Histone acetyltransferase KAT6A, winged helix 1, GST fusion (KAT6A, Homo sapiens, UniProt Q92794, residues 1-85)
Method: protein binding microarray
Form: double-stranded DNA, one strand shown
Medium: in vitro
Concentration: not given
Setting: 8-mer, flanks averaged, mean of 2 arrays, mostly near background
Baseline: not given
Direction: higher = stronger binding
Construct (chain): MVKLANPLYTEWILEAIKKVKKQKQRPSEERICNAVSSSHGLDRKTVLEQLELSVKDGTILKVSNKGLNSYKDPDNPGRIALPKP
With `ACGGGCTA` the E-score was 0.24.
For `TAGTGACA`, the E-score was -0.106.
`CAGTATTC` has an E-score of -0.161.
For `CCCATATC`, the E-score was -0.182.
`CCCTGATC` gave an E-score of -0.0604.
`AATTTGAT` gave an E-score of -0.163.
The E-score of `AAAACCCC` is reported as -0.0872.
`CAGTCCCC` gave an E-score of -0.0827.
With `ATCGGTTC` the E-score was 0.123.
The E-score of `GCATAGAC` is reported as -0.017.
For `CCCCTGAA`, the E-score was 0.0142.
The E-score of `AAAAATCG` is reported as -0.117.
The E-score of `TATATCCA` is reported as -0.244.
`GTCCTAAA` has an E-score of -0.0362.
`ACATCAAT` has an E-score of -0.133.
The E-score of `AAGCAAGC` is reported as -0.0392.
`ACTCGGGA` has an E-score of 0.133.
`GATTAGGA` gave an E-score of 0.0673.
`ACATCACA` gave an E-score of -0.232.
The E-score of `AGCTGTTA` is reported as -0.121.
`CTCAGTAC` has an E-score of -0.124.
With `ATTAACAG` the E-score was -0.0267.
The E-score of `GTAGCAAC` is reported as -0.0665.
`ATGTCACG` has an E-score of 0.0406.

Sample 5
Target: Interferon regulatory factor 3, full length, phosphomimetic (IRF3, Homo sapiens, UniProt Q14653, residues 1-427, S386D/S396D/S398D/S402D/T404D/S405D)
Chain of UniProt Q14653 (whole entry, unmodified, looked up): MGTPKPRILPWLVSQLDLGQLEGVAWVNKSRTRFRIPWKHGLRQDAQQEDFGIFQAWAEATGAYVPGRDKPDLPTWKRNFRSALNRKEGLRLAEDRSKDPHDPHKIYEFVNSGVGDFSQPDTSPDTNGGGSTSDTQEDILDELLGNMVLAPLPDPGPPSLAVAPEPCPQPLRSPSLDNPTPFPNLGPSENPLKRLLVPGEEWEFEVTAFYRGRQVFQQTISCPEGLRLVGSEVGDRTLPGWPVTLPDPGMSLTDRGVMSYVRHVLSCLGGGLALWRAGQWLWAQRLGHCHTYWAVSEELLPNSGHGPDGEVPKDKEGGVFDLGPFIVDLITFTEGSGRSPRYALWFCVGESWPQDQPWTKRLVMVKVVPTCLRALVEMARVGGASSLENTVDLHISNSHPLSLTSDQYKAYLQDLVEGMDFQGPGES
Method: protein-binding microarray
Form: double-stranded DNA, one strand shown
Medium: in vitro
Concentration: 2540 nM top
Setting: 60-bp whole probe
Together with: salmon DNA 0.4 mg/ml
Baseline: random background probes
Direction: higher = stronger binding
Constant ends, left off below: GCCTAGCAC … GTCTTGATTCGCTTGACGCTGCTG
`TTAGATTTCGGGTATCGACTAGTGCTA` — result for “fitted relative affinity”: 1.28 z-score.
`TCAAGAATGTCCTTTCTCACTGTGCTA` — result for “fitted relative affinity”: 3.61 z-score.
`TGTAGTGTGTGTCTGATTATGTGCTAG`: “fitted relative affinity” 0.0105 z-score.
`GACGGTCGCGGTCTCGGGACGTGCTAG` — result for “fitted relative affinity”: -0.138 z-score.
`TCATTTTTCTGATCCATACTGTGCTAG` — result for “fitted relative affinity”: 2.58 z-score.
Under “fitted relative affinity”, `TTAGGTACCGGGACTGGGTTAGTGCTA` is recorded as -0.287 z-score.
`TATTACCTCATCTTCCTCTGCGTGCTA`: “fitted relative affinity” 0.934 z-score.
Under “fitted relative affinity”, `TTAGGCCTGGGGTATCGGTTAGTGCTA` is recorded as -0.47 z-score.
For `TTTCCTTTATGTCCTGTCTAGTGCTAG`, “fitted relative affinity” read 9.07 z-score.
For `GACGGTATCGGGAGTGGGGACGTGCTA`, “fitted relative affinity” read 0.869 z-score.
Under “fitted relative affinity”, `GACGGTCTCGATTTCGGGACGTGCTAG` is recorded as 1.94 z-score.
`TTAGATATAAGTATCGATTAGTGCTAG` — result for “fitted relative affinity”: 0.501 z-score.
For `TTAGGTCTCGGTCTCGATTAGTGCTAG`, “fitted relative affinity” read 1.03 z-score.
`TTAGGGCTGGGTATCGGTTAGTGCTAG` — result for “fitted relative affinity”: 0.169 z-score.
Under “fitted relative affinity”, `TCAGATGCCTTTCTCTTACTGTGCTAG` is recorded as 4.11 z-score.
Under “fitted relative affinity”, `GACGGTAACCTACTGCTGACGTGCTAG` is recorded as 0.145 z-score.
Under “fitted relative affinity”, `GACGGACTGAGTCTCGAGACGTGCTAG` is recorded as -0.723 z-score.
Under “fitted relative affinity”, `GACGATTTCAGTCTCGAGACGTGCTAG` is recorded as 2.51 z-score.
`GTGGCAGGCCCTCGGGCTCCGTGCTAG` — result for “fitted relative affinity”: -1.59 z-score.
Under “fitted relative affinity”, `GACGGTTTCGGACTAGGGACGTGCTAG` is recorded as 5.27 z-score.
